Measurements from different studies.
Numbers after ± are the reported error.
plsY: Glycerol-3-phosphate acyltransferase (plsY, Streptococcus pneumoniae, UniProt P0A4Q0)
Trypanothione synthetase: Trypanothione synthetase (Trypanosoma brucei brucei, UniProt Q586P2)
Palmitoyl-protein thioesterase 1: Palmitoyl-protein thioesterase 1 (Homo sapiens, UniProt P50897)
Chain of UniProt P50897 (whole entry, looked up): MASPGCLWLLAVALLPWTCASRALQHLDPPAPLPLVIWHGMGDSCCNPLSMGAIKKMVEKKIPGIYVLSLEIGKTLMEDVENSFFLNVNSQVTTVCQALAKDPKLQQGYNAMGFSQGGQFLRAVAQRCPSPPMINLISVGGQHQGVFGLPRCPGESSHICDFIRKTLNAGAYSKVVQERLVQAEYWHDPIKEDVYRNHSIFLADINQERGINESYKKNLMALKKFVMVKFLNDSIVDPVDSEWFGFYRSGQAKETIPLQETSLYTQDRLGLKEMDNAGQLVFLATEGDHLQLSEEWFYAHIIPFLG
Chain of UniProt P47901 (whole entry, looked up): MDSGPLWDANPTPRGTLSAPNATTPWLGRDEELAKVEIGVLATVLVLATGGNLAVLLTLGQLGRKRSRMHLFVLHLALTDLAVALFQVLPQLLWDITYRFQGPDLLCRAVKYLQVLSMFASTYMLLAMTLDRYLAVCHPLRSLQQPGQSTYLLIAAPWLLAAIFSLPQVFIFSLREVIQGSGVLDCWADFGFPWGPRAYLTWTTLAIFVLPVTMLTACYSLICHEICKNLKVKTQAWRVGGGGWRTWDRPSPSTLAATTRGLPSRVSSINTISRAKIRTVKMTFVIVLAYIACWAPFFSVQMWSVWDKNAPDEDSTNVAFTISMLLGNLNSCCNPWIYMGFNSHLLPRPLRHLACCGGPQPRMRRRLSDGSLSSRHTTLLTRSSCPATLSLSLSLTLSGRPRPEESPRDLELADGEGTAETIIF
Chain of UniProt P08172 (whole entry, looked up): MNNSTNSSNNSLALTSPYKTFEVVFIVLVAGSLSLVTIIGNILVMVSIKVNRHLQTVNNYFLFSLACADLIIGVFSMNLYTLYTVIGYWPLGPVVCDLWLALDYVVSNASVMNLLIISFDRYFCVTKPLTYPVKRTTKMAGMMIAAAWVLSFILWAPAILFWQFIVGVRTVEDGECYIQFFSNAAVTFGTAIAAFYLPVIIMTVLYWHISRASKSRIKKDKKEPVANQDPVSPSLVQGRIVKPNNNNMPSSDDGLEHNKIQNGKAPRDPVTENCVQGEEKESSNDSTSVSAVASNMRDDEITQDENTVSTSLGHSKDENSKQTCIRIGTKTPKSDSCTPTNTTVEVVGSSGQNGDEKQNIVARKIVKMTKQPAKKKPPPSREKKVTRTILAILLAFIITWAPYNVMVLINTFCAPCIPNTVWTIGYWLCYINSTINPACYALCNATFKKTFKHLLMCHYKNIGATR
Chain of UniProt Q86YV6 (whole entry, looked up): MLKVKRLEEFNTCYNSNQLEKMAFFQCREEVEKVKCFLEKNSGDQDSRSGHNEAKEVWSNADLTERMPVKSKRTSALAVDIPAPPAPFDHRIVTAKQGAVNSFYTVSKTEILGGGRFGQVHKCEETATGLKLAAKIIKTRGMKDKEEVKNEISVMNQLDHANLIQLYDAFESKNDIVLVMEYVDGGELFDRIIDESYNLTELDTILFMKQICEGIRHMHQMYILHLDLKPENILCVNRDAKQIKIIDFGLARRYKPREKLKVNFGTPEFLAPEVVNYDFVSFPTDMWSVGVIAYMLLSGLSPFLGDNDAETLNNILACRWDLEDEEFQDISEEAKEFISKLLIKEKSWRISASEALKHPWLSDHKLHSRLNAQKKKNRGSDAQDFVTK
Chain of UniProt P41144 (whole entry, looked up): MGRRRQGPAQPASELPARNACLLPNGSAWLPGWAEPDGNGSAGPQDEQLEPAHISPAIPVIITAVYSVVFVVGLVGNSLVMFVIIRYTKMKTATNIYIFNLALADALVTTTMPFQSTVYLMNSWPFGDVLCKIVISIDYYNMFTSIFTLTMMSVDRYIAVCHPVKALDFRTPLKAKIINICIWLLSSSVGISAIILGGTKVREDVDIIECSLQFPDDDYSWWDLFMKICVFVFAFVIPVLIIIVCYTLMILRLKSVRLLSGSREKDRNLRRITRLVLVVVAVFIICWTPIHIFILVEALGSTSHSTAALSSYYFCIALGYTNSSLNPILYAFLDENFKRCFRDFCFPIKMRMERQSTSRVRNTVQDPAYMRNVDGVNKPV
Chain of UniProt P26358 (whole entry, looked up): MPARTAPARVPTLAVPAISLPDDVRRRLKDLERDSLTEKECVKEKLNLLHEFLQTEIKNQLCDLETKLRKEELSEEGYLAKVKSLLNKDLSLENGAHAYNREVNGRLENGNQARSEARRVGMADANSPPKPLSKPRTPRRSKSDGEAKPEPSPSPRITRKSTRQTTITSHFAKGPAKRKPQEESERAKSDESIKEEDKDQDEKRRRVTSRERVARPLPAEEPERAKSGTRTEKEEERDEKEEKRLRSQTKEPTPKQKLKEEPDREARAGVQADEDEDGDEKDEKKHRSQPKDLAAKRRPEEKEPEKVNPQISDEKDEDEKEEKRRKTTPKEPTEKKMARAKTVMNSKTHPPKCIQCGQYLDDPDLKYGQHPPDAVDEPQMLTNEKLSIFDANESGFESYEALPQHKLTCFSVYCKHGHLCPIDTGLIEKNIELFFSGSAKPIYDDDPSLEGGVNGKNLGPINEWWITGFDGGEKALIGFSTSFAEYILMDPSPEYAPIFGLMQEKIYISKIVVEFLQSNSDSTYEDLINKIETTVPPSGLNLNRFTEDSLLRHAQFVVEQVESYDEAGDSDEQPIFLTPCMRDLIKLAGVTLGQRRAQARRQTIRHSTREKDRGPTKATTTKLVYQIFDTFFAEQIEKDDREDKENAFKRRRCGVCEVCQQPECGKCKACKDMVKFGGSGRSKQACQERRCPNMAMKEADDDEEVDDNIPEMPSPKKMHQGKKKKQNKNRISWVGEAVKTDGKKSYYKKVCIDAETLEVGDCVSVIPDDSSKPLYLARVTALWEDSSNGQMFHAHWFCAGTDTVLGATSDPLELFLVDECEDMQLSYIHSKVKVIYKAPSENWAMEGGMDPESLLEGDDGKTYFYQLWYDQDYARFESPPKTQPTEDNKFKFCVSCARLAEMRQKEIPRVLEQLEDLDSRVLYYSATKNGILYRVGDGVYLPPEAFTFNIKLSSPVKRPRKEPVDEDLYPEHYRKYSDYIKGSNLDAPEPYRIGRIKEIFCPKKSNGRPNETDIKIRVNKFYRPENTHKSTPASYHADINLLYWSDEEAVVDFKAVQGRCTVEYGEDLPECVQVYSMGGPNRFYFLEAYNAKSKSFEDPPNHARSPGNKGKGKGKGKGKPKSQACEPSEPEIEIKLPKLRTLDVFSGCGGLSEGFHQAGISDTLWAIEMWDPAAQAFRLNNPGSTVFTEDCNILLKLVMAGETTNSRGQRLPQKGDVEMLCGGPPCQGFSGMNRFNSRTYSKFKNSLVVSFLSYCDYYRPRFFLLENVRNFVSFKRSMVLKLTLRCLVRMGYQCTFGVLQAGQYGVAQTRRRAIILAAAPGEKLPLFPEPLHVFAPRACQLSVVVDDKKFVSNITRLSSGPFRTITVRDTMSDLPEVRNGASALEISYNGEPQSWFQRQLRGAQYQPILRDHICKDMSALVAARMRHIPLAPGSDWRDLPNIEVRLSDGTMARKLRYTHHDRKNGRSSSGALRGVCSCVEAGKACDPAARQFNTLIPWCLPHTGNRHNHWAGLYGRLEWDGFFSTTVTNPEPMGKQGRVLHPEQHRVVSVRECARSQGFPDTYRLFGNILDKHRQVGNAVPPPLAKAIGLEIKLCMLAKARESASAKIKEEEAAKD
Chain of UniProt P08908 (whole entry, looked up): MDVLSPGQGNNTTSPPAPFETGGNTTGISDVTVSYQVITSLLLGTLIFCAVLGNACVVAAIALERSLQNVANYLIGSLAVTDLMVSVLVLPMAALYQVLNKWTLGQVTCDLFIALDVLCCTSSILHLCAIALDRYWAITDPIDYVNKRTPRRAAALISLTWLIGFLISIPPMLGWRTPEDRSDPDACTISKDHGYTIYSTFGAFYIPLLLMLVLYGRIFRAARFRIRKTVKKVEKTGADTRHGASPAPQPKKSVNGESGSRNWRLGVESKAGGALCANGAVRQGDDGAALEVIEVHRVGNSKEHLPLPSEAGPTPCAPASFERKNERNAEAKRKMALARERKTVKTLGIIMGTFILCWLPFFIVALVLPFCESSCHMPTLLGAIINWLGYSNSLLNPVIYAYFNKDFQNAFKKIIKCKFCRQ
Chain of UniProt Q14416 (whole entry, looked up): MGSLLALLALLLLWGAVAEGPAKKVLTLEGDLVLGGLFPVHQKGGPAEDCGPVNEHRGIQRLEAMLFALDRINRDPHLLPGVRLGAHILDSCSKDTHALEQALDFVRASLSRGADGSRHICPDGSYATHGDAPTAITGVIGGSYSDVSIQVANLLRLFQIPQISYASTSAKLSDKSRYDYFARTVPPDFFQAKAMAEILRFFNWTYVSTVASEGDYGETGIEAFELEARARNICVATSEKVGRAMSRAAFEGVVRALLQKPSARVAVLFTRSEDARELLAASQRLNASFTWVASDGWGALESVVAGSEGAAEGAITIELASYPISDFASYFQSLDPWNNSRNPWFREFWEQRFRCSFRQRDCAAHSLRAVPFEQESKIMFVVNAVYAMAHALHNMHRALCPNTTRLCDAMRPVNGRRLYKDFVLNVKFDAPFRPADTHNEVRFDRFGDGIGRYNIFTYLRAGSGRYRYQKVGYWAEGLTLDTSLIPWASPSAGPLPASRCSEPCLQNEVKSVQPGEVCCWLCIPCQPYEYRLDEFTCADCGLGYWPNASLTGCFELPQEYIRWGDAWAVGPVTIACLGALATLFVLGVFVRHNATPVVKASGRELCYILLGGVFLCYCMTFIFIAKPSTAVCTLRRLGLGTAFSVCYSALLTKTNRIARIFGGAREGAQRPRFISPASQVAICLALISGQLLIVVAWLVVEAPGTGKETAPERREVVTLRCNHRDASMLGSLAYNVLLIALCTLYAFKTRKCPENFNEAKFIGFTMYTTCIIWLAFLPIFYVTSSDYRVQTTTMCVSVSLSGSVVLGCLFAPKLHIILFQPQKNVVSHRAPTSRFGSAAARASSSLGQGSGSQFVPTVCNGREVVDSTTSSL

`Cn1cccc1-c1cccnc1` has an inhibition of -12.5% (5-hydroxytryptamine receptor 2C (HTR2C, Homo sapiens, UniProt P28335); binding; 50 µM).
With `O=C(O)c1nccnc1NC(=O)c1cccc2ccccc12` the inhibition was 74.4% (panD (Mycobacteroides abscessus, UniProt B1MGV7, S136A); 200 µM).
With `O=C(Nc1cnccc1Cl)N1CCN(Cc2ccc3c(c2)OC(F)(F)O3)CC1` the inhibition was 5% (Vasopressin V1b receptor (AVPR1B, Homo sapiens, UniProt P47901); binding; 50 µM, with: [3H][Arg8]vasopressin).
With `COC(=O)c1ccc(OP(=O)(Oc2ccc(C(=O)OC)cc2)C(CCc2c[nH]c3ccccc23)NC(=O)OCc2ccccc2)cc1` (racemic) the inhibition was 70.3 ± 0.6% (Structural polyprotein, capsid protease (O'nyong-nyong virus, UniProt P22056); protease activity, irreversible covalent inhibitor; 100 µM, 30 °C, CP Δ2 construct, 1% DMSO, with: H-Gly-Glu-Ser-Glu-Val-Trp-ACC, 50 µM).
With `CCCCCC/C=C\CCCCCCCCCC(=O)CP(=O)(O)O` the inhibition was 98% (plsY; inhibitor; 200 µM).
`Cc1c(C(=O)OCC2CCCN2C(N)=O)oc2c(Cl)cccc12` (stereo not shown) gave an inhibition of 24.3 ± 2.4% (Trypanothione synthetase; enzyme activity, BIOMOL Green phosphate release; 25 µM).
The inhibition of `Cc1ncc2c(n1)[C@H](C)[C@@H]1C[C@H]2[C@@](C)(O)CN1Cc1ccccc1` is reported as 0% (Kappa-type opioid receptor (OPRK1, Cavia porcellus, UniProt P41144); binding, radioligand binding; guinea pig brain; 1 µM, with: [3H]U-69,593).
`Cc1c2oc3c(C)ccc(C(=O)N[C@@H]4C(=O)N[C@H](C(C)C)C(=O)N5CCC[C@H]5C(=O)N(C)CC(=O)N(C)[C@@H](C(C)C)C(=O)O[C@@H]4C)c3nc-2c(C(=O)N[C@@H]2C(=O)N[C@H](C(C)C)C(=O)N3CCC[C@H]3C(=O)N(C)CC(=O)N(C)[C@@H](C(C)C)C(=O)O[C@@H]2C)c(N)c1=O` gave an inhibition of 63.8% (Palmitoyl-protein thioesterase 1; Spectrum Collection screen; concentration not given, with: substrate 20 µM).
`COc1cc(Nc2ncc(F)c(Nc3ccc4c(n3)NC(=O)C(C)(C)O4)n2)cc(OC)c1OC` has an inhibition of 84% (Myosin light chain kinase family member 4 (MYLK4, Homo sapiens, UniProt Q86YV6); KINOMEscan; 10 µM).
`CN1CCN(c2nc(N)c3ccccc3n2)CC1` gave an inhibition of 11.9% (5-hydroxytryptamine receptor 1A (HTR1A, Homo sapiens, UniProt P08908); radioligand binding, radioligand competition binding; 0.1 µM, first replicate; reference: control specific binding).
The inhibition of `Cc1ncc(C)n2nc(/C=C/c3nc(N4CCCC4)cc(N4CCOCC4)n3)nc12` is reported as -56% (L-type calcium channel diltiazem site; radioligand binding; 10 µM).
`O=C(CCCCCCCCCCOc1ccccc1)CP(=O)(O)O` gave an inhibition of 48% (plsY; inhibitor; 200 µM).
`COc1cc2c(NC3CCN(C)CC3)cc(-c3ccc(C)o3)nc2cc1OCCCN1CCCC1` gave an inhibition of 97.1% (DNA (cytosine-5)-methyltransferase 1 (DNMT1, Homo sapiens, UniProt P26358); enzyme activity; 33330 nM).
For `CN(CCN1CCC(OC(=O)Nc2ccccc2-c2ccccc2)CC1)C(=O)c1ccc(CN2CCC(C(N)=O)CC2)cc1`, the inhibition was -23% (rat NPY Y receptor non-selective; radioligand binding; 1 µM, with: [3H]NPY 0.5 nM).
For `CN1C(=O)N(CC(=O)NCc2ccc(Oc3ccc(F)cc3)cc2)C(=O)C12CCCCC2`, the inhibition was 15.5 ± 9.4% (Trypanothione synthetase; enzyme activity, BIOMOL Green phosphate release; 25 µM).
`O=C(CCCCc1ccccc1)CP(=O)(O)O` has an inhibition of 6% (plsY; inhibitor; 200 µM).
`COc1ccc(N2C(=O)N(c3c(C)cccc3Cl)Cc3cnc(Nc4ccc(C5CCN(C)CC5)cc4OC)nc32)nc1` has an inhibition of 27% (Protein-tyrosine kinase 2-beta (PTK2B, Homo sapiens, UniProt Q14289); kinase activity, inhibitor; 0.5 µM, PYK2).
`O=C(Cc1ccc2c(c1)CCCC2)NCc1ccc(N2CCCC2)nc1` has an inhibition of 18.6 ± 5.6% (Trypanothione synthetase; enzyme activity, BIOMOL Green phosphate release; 25 µM).
The inhibition of `CC(C)N1CCC[C@H]1CNC(=O)c1cn(C2CCCC2)c(=O)c2c1c1ccccc1n2C` is reported as 11% (Epidermal growth factor receptor (EGFR, Homo sapiens, UniProt P00533); radioligand binding; 10 µM).
With `CN1CCN(c2cc(-c3ccncc3)c(-c3ccc4ccccc4c3)nn2)CC1` the inhibition was 2.6% (C-C chemokine receptor type 10 (CCR10, Homo sapiens, UniProt P46092); antagonist, FLIPR; 10 µM).
`Cc1[nH]c2ccc(C(=O)N3CCN(S(=O)(=O)c4ccc(Cl)s4)CC3)cc2c1C` has an inhibition of 7.2 ± 3% (Trypanothione synthetase; enzyme activity, BIOMOL Green phosphate release; 25 µM).
With `FC(F)(F)c1cccc(Nc2nc(NCCOc3ccccc3)nc3[nH]cnc23)c1` the inhibition was 6% (Serine/threonine-protein kinase MARK2 (MARK2, Homo sapiens, UniProt Q7KZI7); Z'-LYTE or Adapta; 5 µM).
For `CN(Cc1ccccc1Br)C(=O)c1ccccc1C(=O)c1ccccc1`, the inhibition was 35.8 ± 3.9% (Trypanothione synthetase; enzyme activity, BIOMOL Green phosphate release; 25 µM).
With `c1ccc(C(NCCNC(c2ccccc2)c2ccccc2)c2ccccc2)cc1` the inhibition was 3% (PDE6A/PDE6B (Bos taurus, UniProt P11541+P23439); enzyme activity; 10 µM, Eurofins selectivity panel).
`CN(C(=O)n1cnc(-c2ccc[n+]([O-])c2)c1)C1CCCCC1` gave an inhibition of 2% (Metabotropic glutamate receptor 2 (GRM2, Homo sapiens, UniProt Q14416); radioligand binding; 50 µM, with: [3H]LY341495).
For `O=C(CCCCC1CCCCC1)NP(=O)(O)O`, the inhibition was 18% (plsY; inhibitor; 200 µM).
With `O=c1ccc2ccccc2o1` the inhibition was -6.65% (Muscarinic acetylcholine receptor M2 (CHRM2, Homo sapiens, UniProt P08172); antagonist radioligand binding; 10 µM, SafetyScreen44).
For `O=C(Nc1cccnn1)N1CCC(=Cc2cccc(Oc3ccc(C(F)(F)F)cn3)c2)CC1`, the inhibition was 6.2% (Monoacylglycerol lipase ABHD6 (Abhd6, Rattus norvegicus, UniProt Q5XI64); probe labelling, inhibitor, competitive ABPP with azido-FP probe, measured: ABHD6; rat brain membrane fraction; 0.1 µM).
`CCCCCCCCCCCC(=O)CP(=O)(O)O` gave an inhibition of 38% (plsY; inhibitor; 200 µM).
The inhibition of `COCc1c(-c2cc3cc(C)cc(OC)c3s2)c2c(N)ncnn2c1CN1CCNC(=O)C1` is reported as 75% (15-lipoxygenase; enzyme activity; 10 µM).
`CNCC(=O)c1ccc(O)c(O)c1.Cl` gave an inhibition of 62.7% (Palmitoyl-protein thioesterase 1; Spectrum Collection screen; concentration not given, with: substrate 20 µM).

Some of these lines once more:
The inhibition of `Cc1ncc2c(n1)[C@H](C)[C@@H]1C[C@H]2[C@@](C)(O)CN1Cc1ccccc1` is reported as 0% (Kappa-type opioid receptor (OPRK1, Cavia porcellus, UniProt P41144); binding, radioligand binding; guinea pig brain; 1 µM, with: [3H]U-69,593).
With `CCCCCC/C=C\CCCCCCCCCC(=O)CP(=O)(O)O` the inhibition was 98% (plsY; inhibitor; 200 µM).
`COc1cc(Nc2ncc(F)c(Nc3ccc4c(n3)NC(=O)C(C)(C)O4)n2)cc(OC)c1OC` has an inhibition of 84% (Myosin light chain kinase family member 4 (MYLK4, Homo sapiens, UniProt Q86YV6); KINOMEscan; 10 µM).
